Measurements from different studies.
Compare with care: the assays were run in different laboratories. Values joined by “and” are separate records of one study, mostly repeats; a detail may differ. ± marks the error that the study gave.

CCCCN1CCN(c2ccc3[nH]c(-c4ccc5[nH]c(-c6ccc(OCC)cc6)nc5c4)nc3c2)CC1
growth percent (786-0; cell growth, NCI-60 SRB; 10 µM, 48 h): 75.3%

NC(=O)[C@H](CCCN=C(N)CCl)NC(=O)c1ccccc1
viability (OCI-Ly1; 1 µM, 120 h): 163%

COc1cccc2c(Nc3ccc4[nH]c(C(=O)N/N=C/c5ccc(SC)cc5)cc4c3)cc(C)nc12
confluence (COS-7; 3 µM, 24 h, 0.1% DMSO, unit not given; baseline: vehicle control): 0.9 ± 0.05

[Cl-].[Cl-].[Ru+2].c1cnc2c(c1)ccc1cccnc12.c1cnc2c(c1)ccc1cccnc12.c1csc(-c2ccc(-c3ccc(-c4nc5c6cccnc6c6ncccc6c5[nH]4)s3)s2)c1
photocytotoxicity (SK-MEL-28; concentration not given, 1% O2, together with: 633 nm light): inactive

COc1cc2ncnc(Nc3ccc(Oc4ccccc4)cc3C)c2cc1OC.O=C(O)C(F)(F)F
Bliss synergy score (LoVo (KRAS G13D); cell viability; concentration not given, 72 h, together with: trametinib; direction not given): 249%

C=CC(=O)N1CCCN(C(=O)c2cc(Sc3cnc(NC(=O)C4CC4)s3)c(C)cc2OC)C[C@H]1C
Th2 cytokine production (human Th2-polarized CD4 T cells; MSD, item: IL-4, IL-5, IL-13; polarized 6 days, together with: anti-CD3/CD28 restimulation): inhibited

Cc1cc(Nc2ncc(Cl)c(Nc3ccccc3S(=O)(=O)C(C)C)n2)c(OC(C)C)cc1C1CCNCC1
log2 fold change (CLB-GE; phosphoproteomics LC-MS/MS, item: IWS1 phosphorylation; 200 nM, 60 min; baseline: untreated): -1.93

COc1c(O[C@@H]2O[C@H](CO)[C@@H](O)[C@H](O)[C@H]2O)cc2c(c1O)C(=O)c1c(cc(C)c(O)c1OC)C2=O
cell viability (HepaRG co-cultured with HK-2; MTT; 66.67 µM, 24 h; baseline: untreated control): 95.1 ± 11.8%

Cn1cc(-c2ccc(-c3cncc(Cl)c3N3CCC4(CCNC4=O)CC3)cc2)cn1
log2 fold change (COLO 205; gene expression, microarray, item: P4HA2 mRNA; concentration not given, 6 h; baseline: untreated cells): 3.86

Cc1ccc(S(=O)(=O)Oc2ccc(NC(=O)c3cnccn3)cc2)cc1
inhibition of proliferation (MCF7 transfected with human P2X7R; 10 µM, together with: Bz-ATP 100 µM; baseline: Bz-ATP alone): 19%

Clc1ccc(C2(c3ccc(-c4cn[nH]c4)cc3)CCNCC2)cc1
pERK level (CLL cells, patient; flow cytometry, MFI; human; 10 µM, 24 h): 321

Cc1cc(Nc2ncc(Cl)c(Nc3ccccc3S(=O)(=O)C(C)C)n2)c(OC(C)C)cc1C1CCNCC1
Emax (Ba/F3 EML4-ALK v3, no mutation; cell viability): 99.5%

O=C1CCc2c(ccc3ccccc23)O1
viability (OCI-Ly1; 0.1 µM, 120 h): 183%

CCc1cnc(N2CCC(c3nc(COc4ccc(-n5cnnn5)cc4)cs3)CC2)nc1
normalized enrichment score (HEK-293T; RNA-seq GSEA, item: Hallmark apical surface; concentration not given; direction not given): -0.801

CCCCc1n(Cc2ccc3ccccc3n2)cc[n+]1Cc1ccc2ccccc2n1
GI50 (NCI60 NSCLC cell lines; cell growth): ≤ 12.5 µM

COc1cc(/C=C/C(=O)N2CCC=CC2=O)cc(OC)c1OC
mRNA level (MDA-MB-468; quantitative RT-PCR, item: ENO1; 30 µM, 8 h; baseline: untreated cells): 104%

Nc1ncn([C@H]2C[C@H](O)[C@@H](CO)O2)c(=O)n1
viability (OCI-Ly1; 1 µM, 120 h): 18.2%

Cc1nc(NC(=O)N2CCC[C@H]2C(N)=O)sc1-c1ccnc(C(C)(C)C(F)(F)F)c1
IC50 (HCC1954; western blot, item: phospho-S6 Ser235/Ser236; 2 h): 0.222 µM

CC(=O)c1nn(-c2ccc(Cl)cc2)/c(=N/N=C(\C)c2ccc(NC(=O)c3ccc(C)cc3)cc2)s1
toxicity (HepG2; 5 µM): 96.9%

COc1cnc2cccc(N3CCc4c(cc(Cn5ccnc5C)cc4-c4cn(C)nc4C(F)(F)F)C3=O)c2c1
EC50 (Lu-65; cell growth, inhibitor; 120 h): 0.927 µM

C=C1C(=O)O[C@H]2[C@H]1[C@H](OC(=O)/C(C)=C\C)CC(=C)[C@@H]1[C@H](O)[C@H]3O[C@@]3(C)[C@@]12O
EC50 (iPSC-derived cardiomyocytes; concentration-response curve, item: MyBP-C protein level): 54.1 µM

CC(C)NCC(O)c1ccc(O)c(O)c1 (stereo not drawn)
sarcomere length (mouse ventricular cardiomyocytes; dose not given, 0.136 s): 1.6 µm

CC(C)C[C@H](NC(=O)C[C@H](O)[C@H](CC(C)C)NC(=O)[C@H](Cc1c[nH]cn1)NC(=O)CNC(=O)[C@@H](NC(=O)[C@H](C)NC(=O)[C@H](Cc1c[nH]c2ccccc12)NC(=O)[C@H](CCC(N)=O)NC(=O)[C@@H](Cc1ccccc1)NC(=O)COCCOCCNC(=O)CCC(C(=O)O)N1CCN(CC(=O)O)CCN(CC(=O)O)CCN(CC(=O)O)CC1)C(C)C)C(N)=O (stereo partly drawn) [lutetium-177 labelled]
tissue uptake (BALB/c nu/nu mice, female, carcass incl. GI tract contents; intravenous, 50 pmol, 24 h): 0.5 ± 0.6 %ID

CC/C(=N\NC(=O)NCc1cccc(O)c1)c1ccc(O)c(C)c1O
protein level (SK-OV-3; Western blot, item: LATS; 1 µM, 1 h, 3D culture in gellan gum, unit not given; baseline: β-actin): 0.91 ± 0.58

Cc1cccc(-c2[nH]c(CNc3ccccc3F)nc2-c2ccc3ncnn3c2)n1
XTT absorbance (pomalidomide-resistant MM1.S cells; XTT; 2.5 µM; higher = more viable cells): 1.1 E-1 and 1.4 E-1 and 0.8 E-1

C=C1C(=O)O[C@H]2[C@H]1CCC(C)=C1CC[C@@](C)(O)[C@@H]12
fitted top MyBP-C level (iPSC-derived cardiomyocytes; concentration-response fit; concentration not given; baseline: vehicle): 91%

CN(C)c1ccc2nc3ccc(=[N+](C)C)cc-3sc2c1
mean mIPSC amplitude (mouse CA1 pyramidal neurons; patch clamp; hippocampal slices; 10 µM): 33 ± 2.5 pA

FC(F)(F)Oc1ccc(CNc2ccc3nc(COCc4ccccc4)[nH]c3c2)cc1
viability (sample A patient iPSC-derived NPCs; MTS; 10 µM, 24 h; baseline: vehicle): 157 ± 10.5%

COc1ccc(NC(=S)N/N=C/c2cccc3cc4ccccc4nc23)cc1
early apoptotic cells (HeLa; annexin V/PI flow cytometry; concentration not given, 48 h, together with: N-acetylcysteine): 3.2 ± 0.1%

CCn1cc(-c2cc(Cn3ccoc3=N)cc3c2CCN([C@@H](C)c2cc(OC)ccn2)C3=O)c(C(F)(F)F)n1
EC50 (SNU308; cell growth; 120 h): 0.0186 µM

CCCC(CCC)C(=O)O
viability (OCI-Ly1; 1 µM, 120 h): 147%

Cc1ncsc1-c1ccc([C@H](C)NC(=O)[C@H]2C[C@H](O)CN2C(=O)[C@@H](NC(=O)CCCCCCCCCNC(=O)c2ccc3c(c2)[C@H](NC(=O)c2cc(-c4ccc(C(=O)N(C)C)c(O)c4)on2)CC3)C(C)(C)C)cc1
log2 fold change (MV4-11; TMT proteomics, item: SPTY2D1 protein; concentration not given, 2 h; baseline: DMSO): -0.342

O=C(Nc1nnc2[nH]c(=S)[nH]c(-c3ccc(Cl)cc3)c1-2)c1ccccc1
growth percent (786-0; NCI60 SRB; 10 µM): 99.7%

CCCCc1nc(Cl)c(CO)n1Cc1ccc(-c2ccccc2-c2nn[nH]n2)cc1
log2 fold change (human PBMC; RNA-seq, item: ITGB8 mRNA; 10 µg/mL, 24 h; baseline: untreated control): 2.48

CCNC(=O)c1noc(-c2cc(C(C)C)c(O)cc2O)c1-c1ccc(CN2CCOCC2)cc1
EC50 (iPSC-derived cardiomyocytes; concentration-response curve, item: MyBP-C/MYH ratio; 24 h): 1.7 µM

NC(=O)[C@H](CCCN=C(N)CF)NC(=O)c1ccccc1
viability (OCI-Ly1; 0.5 µM, 120 h): 118%

Nc1ncnc2c1ncn2[C@@H]1O[C@H](CO)[C@@H](O)[C@H]1O
IFNγ production (activated human T cells; 3.16 µM; higher = more IFNγ): 344 a.u. and 549 a.u. and 335 a.u.

Cn1cc(Nc2nccc(-c3ccc4c(c3)CN(C3COC3)CC[C@H]4NC(=O)c3cn(C(C)(C)C)nn3)n2)cn1
pathway activation z-score (mouse splenic B cells; item: Renin-Angiotensin signalling; 30 mg/kg, IgD-activated in vivo; baseline: vehicle, direction not given): 3.74

O=C(O)c1ccnc(C(=O)O)c1
viability (OCI-Ly1; 1 µM, 120 h): 169%

CCCCc1oc2ccc(NS(C)(=O)=O)cc2c1C(=O)c1ccc(OCCCN(CCCC)CCCC)cc1
fold change (human embryonic stem cell aggregates; mRNA level, microarray, item: FZD3; 0.5 µM, 120 h; baseline: untreated, up-regulated): 2.1 fold

NC(=O)c1cccc(N)c1
viability (OCI-Ly1; 0.5 µM, 120 h): 68.2%

O=C(/C=C/C=C/C=C/C1CCCCC1)NC1=C[C@@](O)(/C=C/C=C/C=C/C(=O)NC2=C(O)CCC2=O)[C@@H]2O[C@@H]2C1=O
GI50 (cl34; cell growth, inhibitor, CellTiter-Glo luminescence; 78 h; baseline: day 0 cell count): > 30 µM

Nc1cccc2c1C(=O)N(C1CCC(=O)NC1=O)C2=O (stereo not drawn)
surface marker level (RPMI-8226; flow cytometry, item: CD147; concentration not given; baseline: comparator compound alone): 163%

CC(C(=O)Nc1cccc(/N=C/c2c(O)ccc3ccccc23)c1)c1ccccc1 (stereo not drawn)
viability (OCI-Ly1; 0.1 µM, 120 h): 199%

C=CCNC1=C2C[C@@H](C)C[C@H](OC)[C@H](O)[C@@H](C)/C=C(\C)[C@H](OC(N)=O)[C@@H](OC)/C=C\C=C(/C)C(=O)NC(=CC1=O)C2=O
MyBP-C level change (human cells; plate-normalised; concentration not given, hit retest; baseline: vehicle controls, SDs below control): 5.71 SD

CCn1cc(-c2cc(Cn3ccnc3)cc3c2CCN([C@H](c2cc(OC)ccn2)C2CC2)C3=O)c(C(F)(F)F)n1
EC50 (JHH7; cell growth, inhibitor; 120 h): 25.2 µM

FC(F)(F)Sc1ccc(CNc2cccc3[nH]ccc23)cc1
viability (sample A patient iPSC-derived NPCs; MTS; 10 µM, 24 h; baseline: vehicle): 137 ± 19.7%

CC(C)[C@H](N)C(=O)N1CCC[C@H]1B(O)O
viable cells (MV4-11; annexin V/PI flow cytometry, item: annexin V- PI-; 2 µM, 24 h): 65.4%

O=C(COc1cccc2c1C(=O)N(C1CCC(=O)NC1=O)C2=O)NCCOCCOCCNS(=O)(=O)Nc1cccc(-c2cn3cc(C(=O)NC4CCC4)ccc3n2)c1 (stereo not drawn)
log2 fold change (MV4-11; TMT proteomics, item: RPLP2; whole proteome; 10 µM, 4 h; baseline: DMSO): 0.006

COc1cc(NC(C)CCCN)c2ncccc2c1 (stereo not drawn)
EC50 (iPSC-derived cardiomyocytes; concentration-response curve, item: MyBP-C protein level; 24 h): 11.9 µM

Cn1c(Nc2nc3ccc(C(F)(F)F)cc3s2)nc2cc(C(=O)NCCOCCO)ccc21
fold change (SH-SY5Y; RNA-seq, item: SLC12A8 mRNA; 5 µM, 5 h; baseline: untreated cells): 3.11

A few entries again:
CCCCN1CCN(c2ccc3[nH]c(-c4ccc5[nH]c(-c6ccc(OCC)cc6)nc5c4)nc3c2)CC1
growth percent (786-0; cell growth, NCI-60 SRB; 10 µM, 48 h): 75.3%

Cn1c(Nc2nc3ccc(C(F)(F)F)cc3s2)nc2cc(C(=O)NCCOCCO)ccc21
fold change (SH-SY5Y; RNA-seq, item: SLC12A8 mRNA; 5 µM, 5 h; baseline: untreated cells): 3.11

Cc1ccc(S(=O)(=O)Oc2ccc(NC(=O)c3cnccn3)cc2)cc1
inhibition of proliferation (MCF7 transfected with human P2X7R; 10 µM, together with: Bz-ATP 100 µM; baseline: Bz-ATP alone): 19%

COc1cc(NC(C)CCCN)c2ncccc2c1 (stereo not drawn)
EC50 (iPSC-derived cardiomyocytes; concentration-response curve, item: MyBP-C protein level; 24 h): 11.9 µM

CC(C)C[C@H](NC(=O)C[C@H](O)[C@H](CC(C)C)NC(=O)[C@H](Cc1c[nH]cn1)NC(=O)CNC(=O)[C@@H](NC(=O)[C@H](C)NC(=O)[C@H](Cc1c[nH]c2ccccc12)NC(=O)[C@H](CCC(N)=O)NC(=O)[C@@H](Cc1ccccc1)NC(=O)COCCOCCNC(=O)CCC(C(=O)O)N1CCN(CC(=O)O)CCN(CC(=O)O)CCN(CC(=O)O)CC1)C(C)C)C(N)=O (stereo partly drawn) [lutetium-177 labelled]
tissue uptake (BALB/c nu/nu mice, female, carcass incl. GI tract contents; intravenous, 50 pmol, 24 h): 0.5 ± 0.6 %ID

CCCC(CCC)C(=O)O
viability (OCI-Ly1; 1 µM, 120 h): 147%

COc1cnc2cccc(N3CCc4c(cc(Cn5ccnc5C)cc4-c4cn(C)nc4C(F)(F)F)C3=O)c2c1
EC50 (Lu-65; cell growth, inhibitor; 120 h): 0.927 µM

Cn1cc(-c2ccc(-c3cncc(Cl)c3N3CCC4(CCNC4=O)CC3)cc2)cn1
log2 fold change (COLO 205; gene expression, microarray, item: P4HA2 mRNA; concentration not given, 6 h; baseline: untreated cells): 3.86
